Assay results collected from several papers.
Compare with care: the assays were run in different laboratories. ± gives the spread as reported.

Compound | test | test system | conditions | tissue uptake
N=C(N)NCCC[C@@H]1NC(=O)[C@H](CCCCNC(=O)CCOCCOCCOCCOCCNC(=O)CC[C@H](NC(=O)CCOCCOCCOCCOCCNC(=O)CC[C@H](NC(=O)CN2CCN(CC(=O)O)CCN(CC(=O)O)CCN(CC(=O)O)CC2)C(=O)NCCOCCOCCOCCOCCC(=O)N[C@@H](CCC(=O)NCCOCCOCCOCCOCCC(=O)NCCCC[C@@H]2NC(=O)[C@@H](Cc3ccccc3)NC(=O)[C@H](CC(=O)O)NC(=O)CNC(=O)[C@H](CCCNC(=N)N)NC2=O)C(=O)NCCOCCOCCOCCOCCC(=O)NCCCC[C@@H]2NC(=O)[C@@H](Cc3ccccc3)NC(=O)[C@H](CC(=O)O)NC(=O)CNC(=O)[C@H](CCCNC(=N)N)NC2=O)C(=O)NCCOCCOCCOCCOCCC(=O)NCCCC[C@@H]2NC(=O)[C@@H](Cc3ccccc3)NC(=O)[C@H](CC(=O)O)NC(=O)CNC(=O)[C@H](CCCNC(=N)N)NC2=O)NC(=O)[C@@H](Cc2ccccc2)NC(=O)[C@H](CC(=O)O)NC(=O)CNC1=O [indium-111 labelled] | – | female athymic nude mice, lungs | intravenous, 3 µCi, 1 h, U-87 MG glioma xenograft | 3.69 ± 0.92 %ID/g
CC(C)[C@H](NC(=O)[C@H](C)N)C(=O)N[C@@H](CCCNC(=N)N)C(=O)N[C@H](C(=O)N[C@@H](CO)C(=O)N[C@@H](C)C(=O)N[C@@H](CC(=O)O)C(=O)NCCOCCOCCOCCOCCC(=O)N[C@@H](CCCCNC(=O)CN1CCN(CC(=O)O)CCN(CC(=O)O)CC1)C(=O)O)[C@@H](C)O [fluorine-18 labelled] | gamma counting | BALB/c nude mice, female, subcutaneous tumour, liver | intravenous, 3.7 MBq, 2 h | 1.39 ± 0.12 %ID/g
N=C(N)NCCC[C@@H]1NC(=O)[C@H](CCCCNC(=O)CNC(=O)CNC(=O)CNC(=O)CC[C@H](NC(=O)CCOCCOCCOCCOCCNC(=O)CC[C@H](NC(=O)CN2CCN(CC(=O)O)CCN(CC(=O)O)CCN(CC(=O)O)CC2)C(=O)NCCOCCOCCOCCOCCC(=O)N[C@@H](CCC(=O)NCC(=O)NCC(=O)NCC(=O)NCCCC[C@@H]2NC(=O)[C@@H](Cc3ccccc3)NC(=O)[C@H](CC(=O)O)NC(=O)CNC(=O)[C@H](CCCNC(=N)N)NC2=O)C(=O)NCC(=O)NCC(=O)NCC(=O)NCCCC[C@@H]2NC(=O)[C@@H](Cc3ccccc3)NC(=O)[C@H](CC(=O)O)NC(=O)CNC(=O)[C@H](CCCNC(=N)N)NC2=O)C(=O)NCC(=O)NCC(=O)NCC(=O)NCCCC[C@@H]2NC(=O)[C@@H](Cc3ccccc3)NC(=O)[C@H](CC(=O)O)NC(=O)CNC(=O)[C@H](CCCNC(=N)N)NC2=O)NC(=O)[C@@H](Cc2ccccc2)NC(=O)[C@H](CC(=O)O)NC(=O)CNC1=O [indium-111 labelled] | – | athymic nude mice, female, U-87 MG glioma xenograft, U-87 MG tumour | intravenous, 3 µCi, 72 h | 2.66 ± 0.81 %ID/g
N=C(N)NCCC[C@@H]1NC(=O)[C@H](CC(=O)NC23CNCCNCC(N)(CNCCNC2)CNCCNC3)NC(=O)[C@@H](Cc2ccccc2)NC(=O)[C@H](CC(=O)O)NC(=O)CNC1=O [copper-64 labelled] | – | male nude tumour-bearing mice, spleen | iv, 10 µCi, 24 h | 0.77 ± 0.17 %ID/g
N=C(N)NCCC[C@@H]1NC(=O)[C@H](CCCCNC(=O)CCOCCOCCOCCOCCNC(=O)CC[C@H](NC(=O)CCOCCOCCOCCOCCNC(=O)c2ccc(NN)nc2)C(=O)NCCOCCOCCOCCOCCC(=O)NCCCC[C@@H]2NC(=O)[C@@H](Cc3ccccc3)NC(=O)[C@H](CC(=O)O)NC(=O)CNC(=O)[C@H](CCCNC(=N)N)NC2=O)NC(=O)[C@@H](Cc2ccccc2)NC(=O)[C@H](CC(=O)O)NC(=O)CNC1=O [technetium-99m labelled] | – | female athymic nude mice, U-87 MG glioma xenograft, lungs | intravenous, 2.5 µCi, 60 min | 2.1 ± 0.54 %ID/g
N=C(N)NCCC[C@@H]1NC(=O)[C@H](CCCCNC(=O)CNC(=O)CNC(=O)CNC(=O)CC[C@H](NC(=O)CNC(=O)CNC(=O)CNC(=O)[C@H](CCCCNC(=O)c2ccc(NN)nc2)NC(=O)c2ccc(NN)nc2)C(=O)NCC(=O)NCC(=O)NCC(=O)NCCCC[C@@H]2NC(=O)[C@@H](Cc3ccccc3)NC(=O)[C@H](CC(=O)O)NC(=O)CNC(=O)[C@H](CCCNC(=N)N)NC2=O)NC(=O)[C@@H](Cc2ccccc2)NC(=O)[C@H](CC(=O)O)NC(=O)CNC1=O [technetium-99m labelled] | – | female athymic nude mice, blood | intravenous, 0.1 MBq, 1 h, U-87 MG glioma xenograft | 0.73 ± 0.15 %ID/g
CSCC[C@H](NC(=O)[C@H](CC(=O)O)NC(=O)[C@H](CO)NC(=O)[C@H](Cc1c[nH]cn1)NC(=O)[C@H](Cc1c[nH]c2ccccc12)NC(=O)CN1CCN(CC(=O)O)CCN(CC(=O)O)CCN(CC(=O)O)CC1)C(=O)N[C@@H](CCC(=O)O)C(=O)N[C@@H](Cc1c[nH]c2ccccc12)C(=O)N[C@@H](Cc1c[nH]c2ccccc12)C(=O)N[C@@H](Cc1ccc(O)cc1)C(=O)N[C@@H](CC(C)C)C(=O)N[C@@H](CC(C)C)C(=O)NCC(=O)O [copper-64 labelled] | gamma counting | nude mice bearing HT-29 tumours, blood | intravenous, 0.74 MBq (0.02 nmol), 4 h | 2.11 %ID/g
CSCC[C@H](NC(=O)[C@H](CC(C)C)NC(=O)[C@H](Cc1c[nH]cn1)NC(=O)CNC(=O)[C@@H](NC(=O)[C@H](C)NC(=O)[C@H](Cc1c[nH]c2ccccc12)NC(=O)[C@H](CCC(N)=O)NC(=O)CCCCNC(=O)CSCCSCCP(CO)CO)C(C)C)C(N)=O [technetium-99m labelled] | – | CF-1 mice, female, brain | intravenous, 4 h | 0 %ID
N=C(N)NCCC[C@@H]1NC(=O)[C@H](CCCCNC(=O)CCOCCOCCOCCOCCNC(=O)CC[C@H](NC(=O)[C@H](CCCCNC(=O)c2ccc(NN)nc2)NC(=O)c2ccc(NN)nc2)C(=O)NCCOCCOCCOCCOCCC(=O)NCCCC[C@@H]2NC(=O)[C@@H](Cc3ccccc3)NC(=O)[C@H](CC(=O)O)NC(=O)CNC(=O)[C@H](CCCNC(=N)N)NC2=O)NC(=O)[C@@H](Cc2ccccc2)NC(=O)[C@H](CC(=O)O)NC(=O)CNC1=O [technetium-99m labelled] | – | female athymic nude mice, blood | intravenous, 0.1 MBq, 1 h, U-87 MG glioma xenograft | 0.99 ± 0.04 %ID/g
N=C(N)NCCC[C@@H]1NC(=O)[C@H](CCCCNC(=O)CC[C@H](NC(=O)CCOCCOCCOCCOCCNC(=O)CN2CCN(CC(=O)O)CCN(CC(=O)O)CCN(CC(=O)O)CC2)C(=O)NCCCC[C@@H]2NC(=O)[C@@H](Cc3ccccc3)NC(=O)[C@H](CC(=O)O)NC(=O)CNC(=O)[C@H](CCCNC(=N)N)NC2=O)NC(=O)[C@@H](Cc2ccccc2)NC(=O)[C@H](CC(=O)O)NC(=O)CNC1=O [indium-111 labelled] | – | female athymic nude mice, bone | intravenous, 3 µCi, 1 h, U-87 MG glioma xenograft | 1.12 ± 0.14 %ID/g
CC(C)C[C@H](NC(=O)[C@H](Cc1ccc(O)cc1)NC(=O)[C@@H](CCCNC(=N)N)NC(=O)[C@@H](CO)NC(=O)[C@H](Cc1ccccc1)NC(=O)[C@H](CC1CCCCC1)NC(=O)[C@H](CC(=O)O)NC(=O)CCC(C(=O)O)N1CCCN2CCN(CCCN(CC(=O)O)CC2)CC1)C(=O)N[C@@H](Cc1c[nH]c2ccccc12)C(=O)N[C@@H](CO)C(=O)O (some centres unmarked) [copper-64 labelled] | – | female NMRI nude mice, spleen | 1 h p.i. | 2.8 ± 0.3 %ID/g
CSCC[C@H](NC(=O)[C@H](CC(C)C)NC(=O)[C@H](Cc1c[nH]cn1)NC(=O)CNC(=O)[C@@H](NC(=O)[C@H](C)NC(=O)[C@H](Cc1c[nH]c2ccccc12)NC(=O)[C@H](CCC(N)=O)NC(=O)CCCCCCCNC(=O)CCC(=O)Nc1ccc(CNC23CNCCNCC(N)(CNCCNC2)CNCCNC3)cc1)C(C)C)C(N)=O [copper-64 labelled] | – | female SCID mice, PC-3 xenograft, liver | intravenous, 0.6 MBq, 1 h | 9.5 %ID/g
N=C(N)NCCC[C@@H]1NC(=O)[C@H](CCCCNC(=O)CCOCCOCCOCCOCCNC(=O)CN2CCN(CC(=O)O)CCN(CC(=O)O)CCN(CC(=O)O)CC2)NC(=O)[C@@H](Cc2ccccc2)NC(=O)[C@H](CC(=O)O)NC(=O)CNC1=O [indium-111 labelled] | – | female athymic nude mice, muscle | intravenous, 3 µCi, 1 h, U-87 MG glioma xenograft | 0.38 ± 0.05 %ID/g
CSCC[C@H](NC(=O)[C@H](CC(C)C)NC(=O)[C@H](Cc1c[nH]cn1)NC(=O)CNC(=O)[C@@H](NC(=O)[C@H](C)NC(=O)[C@H](Cc1c[nH]c2ccccc12)NC(=O)[C@H](CCC(N)=O)NC(=O)[C@H](CC(N)=O)NC(=O)CNC(=O)[C@H](Cc1ccc(O)cc1)NC(=O)[C@H](CCCNC(=N)N)NC(=O)[C@H](CCC(N)=O)NC(=O)[C@@H]1CCCN1C(=O)CN1CCN(CC(=O)O)CCN(CC(=O)O)CCN(CC(=O)O)CC1)C(C)C)C(N)=O [indium-111 labelled] | – | male Swiss nu/nu mice, PC-3 tumour, kidney | intravenous, 10 pmol, 4 h | 10.6 ± 1.6 %ID/g

Repeated from above:
Compound | test | test system | conditions | tissue uptake
N=C(N)NCCC[C@@H]1NC(=O)[C@H](CCCCNC(=O)CCOCCOCCOCCOCCNC(=O)CC[C@H](NC(=O)[C@H](CCCCNC(=O)c2ccc(NN)nc2)NC(=O)c2ccc(NN)nc2)C(=O)NCCOCCOCCOCCOCCC(=O)NCCCC[C@@H]2NC(=O)[C@@H](Cc3ccccc3)NC(=O)[C@H](CC(=O)O)NC(=O)CNC(=O)[C@H](CCCNC(=N)N)NC2=O)NC(=O)[C@@H](Cc2ccccc2)NC(=O)[C@H](CC(=O)O)NC(=O)CNC1=O [technetium-99m labelled] | – | female athymic nude mice, blood | intravenous, 0.1 MBq, 1 h, U-87 MG glioma xenograft | 0.99 ± 0.04 %ID/g
CSCC[C@H](NC(=O)[C@H](CC(C)C)NC(=O)[C@H](Cc1c[nH]cn1)NC(=O)CNC(=O)[C@@H](NC(=O)[C@H](C)NC(=O)[C@H](Cc1c[nH]c2ccccc12)NC(=O)[C@H](CCC(N)=O)NC(=O)[C@H](CC(N)=O)NC(=O)CNC(=O)[C@H](Cc1ccc(O)cc1)NC(=O)[C@H](CCCNC(=N)N)NC(=O)[C@H](CCC(N)=O)NC(=O)[C@@H]1CCCN1C(=O)CN1CCN(CC(=O)O)CCN(CC(=O)O)CCN(CC(=O)O)CC1)C(C)C)C(N)=O [indium-111 labelled] | – | male Swiss nu/nu mice, PC-3 tumour, kidney | intravenous, 10 pmol, 4 h | 10.6 ± 1.6 %ID/g
